Measurements from different studies.
Each line is one published result; not all experiments were run side by side. “And” joins repeats or separate records; there may be more than shown.
Target: Inhibitor of nuclear factor kappa-B kinase subunit beta (IKBKB, Homo sapiens, UniProt O14920)

| SMILES | test | test system | conditions | scale | measurement | result |
| --- | --- | --- | --- | --- | --- | --- |
| COc1cc(Nc2nc(C)cc(-c3cnn4nc(OC)ccc34)n2)cc(C(F)(F)F)c1 | KINOMEscan |  | 1 µM, IKK-beta | relative to: DMSO | remaining binding | 81% |
| CS(=O)(=O)Nc1cccc(-c2csc3cnc(Nc4ccc(N5CCN(CCCCCOc6cccc7c6C(=O)N(C6CCC(=O)NC6=O)C7=O)CC5)cc4)nc23)c1 (centres unmarked) | probe labelling, inhibitor, KiNativ chemoproteomics | MOLT-4 | 1 µM |  | inhibition | -24.9% |
| CNC(=O)C1CCN(c2cc(C)c(F)cc2NC(=O)c2ccc(-c3cc(O)ccc3C)c(C)c2)CC1 | binding, competition with immobilised ligand |  | 1 µM |  | remaining binding | 100% |
| CN1CC[C@@H](COc2cnc(C#N)cc2-c2ccn3nc(NC(=O)C4CC4)cc3c2)C1 | inhibitor, KinaseProfiler panel |  | 1 µM |  | inhibition | -19% |
| Cc1ccc(-c2c(/C=C(\C#N)C(=O)NC(C)C)n(CCCO)c3ncnc(N)c23)cc1 | cell-free assay, competition with immobilised ligand |  | 1 µM |  | remaining binding | 78% |
| C=CC(=O)N1CCc2ccc(-n3c(=O)ccc4cnc5ccc(-c6cnn(C)c6)cc5c43)cc21 | KINOMEscan |  | 1 µM | relative to: DMSO control | remaining binding | 100% |
| C=CC(=O)N1CCCC(n2c(=O)c3ncccc3n(Cc3ccc(Oc4ccccc4)cc3)c2=O)C1 (centres unmarked) | cell-free assay, competition with immobilised ligand |  | 1 µM |  | remaining binding | 81% |
| COc1c(OCCCN2CCOCC2)ccc2c1N=C(NC(=O)c1cnc(N)nc1)N1CCN=C21 | kinase activity, inhibitor |  | 1 µM | relative to: untreated control | remaining activity | 103% |
| COc1c(Cl)cccc1Nc1c(-c2ccncc2C#C[C@@]2(C)CCCN2C(=O)/C=C/CN(C)C)[nH]c2c1C(=O)NCC2 | binding, competition with immobilised ligand |  | 3 µM |  | remaining binding | 88% |
| Nc1ncc(-c2cc(-c3cnn(CC(F)(F)F)c3)ncc2F)nc1C(=O)NC1CNCC(F)C1 (centres unmarked) | enzyme activity |  | 1 µM | relative to: DMSO control | remaining activity | 94.4% |
| Cc1cccc(-c2ccc3nc(NC(=O)C4CCOCC4)nn3c2)c1 | enzyme activity, Dundee kinase panel |  | 10 µM |  | remaining activity | 97% |
| C=CC(=O)Nc1cccc(-c2cnc3[nH]cc(C(=O)NC(C)(C)C)c3n2)c1 | kinase activity |  | 0.1 µM |  | inhibition | -1% and 1% |
| O=C=[N][Ru-4]123([n]4c5ccc(O)cc5c5c6c(c7cc(F)c[n+]1c7c54)C(=O)NC6=O)[S+]1CC[S+]2CC[S+]3CC1 (centres unmarked) | enzyme activity |  | 100 nM, human enzyme, added: 10 µM ATP | relative to: untreated | remaining activity | 97% |
| NC(=O)[C@@H](O)C[C@H]1CCc2sc3ncnc(O[C@H]4CC[C@H](N5CCOCC5)CC4)c3c21 | enzyme activity, inhibitor |  | 10 µM |  | inhibition | 4% |
| Cc1cccc(-c2ccc3nc(NC(=O)C4CCCCC4)nn3c2)c1 | enzyme activity, Dundee kinase panel |  | 10 µM |  | remaining activity | 90% |
| Cn1cc(-c2cnc3ccc(NC(=O)Nc4ccc5sccc5c4)cc3n2)cn1 | kinase binding, KiNativ profiling, item: Lys1 peptide | PANC-1 lysate | 2.5 µM |  | inhibition | 1.8% |
| Nc1nc(Nc2ccccc2)sc1C(=O)c1ccccc1 | enzyme activity, inhibitor |  | 10 µM |  | remaining activity | 55% |
| Cc1cccc(O[C@H]2CCC[C@@H](C(C)CNCc3ccncc3)C2)c1 (relative stereo) | enzyme activity, inhibitor |  | 10 µM |  | inhibition | -9% |
| C=C1CCCCCCCCCC(CO)C1=O (centres unmarked) | cell-free assay |  | 10 µM |  | remaining signal | 73% |
| COc1ccc(NC(=O)Nc2ccc3c(c2)C(=O)N(C(C)CO)CC(C)C(CN(C)Cc2ccc4c(c2)OCO4)O3)cc1 (centres unmarked) | binding, competition with immobilised ligand |  | 10 µM |  | remaining binding | 68% |
| CN1CCN(Cc2ccc(NC(=O)c3cccc(C#Cc4cnc(N)c5ncccc45)c3)cc2C(F)(F)F)CC1 | cell-free assay, competition with immobilised ligand |  | 50 nM |  | remaining binding | 0.8% |
| Nc1ncc2c(n1)-c1c([nH]c3ccc(C4=CCOCC4)cc13)CCC2 | binding, competition with immobilised ligand |  | 1 µM |  | remaining binding | 89% |
| Cc1cnc2nc1Nc1cccc(c1)COC/C=C/COCc1cc(ccc1OCCN1CCOCC1)N2 | binding, competition with immobilised ligand |  | 0.1 µM |  | remaining binding | 100% |

Repeated from above:
| SMILES | test | test system | conditions | scale | measurement | result |
| --- | --- | --- | --- | --- | --- | --- |
| C=CC(=O)N1CCc2ccc(-n3c(=O)ccc4cnc5ccc(-c6cnn(C)c6)cc5c43)cc21 | KINOMEscan |  | 1 µM | relative to: DMSO control | remaining binding | 100% |
| Cc1cccc(-c2ccc3nc(NC(=O)C4CCCCC4)nn3c2)c1 | enzyme activity, Dundee kinase panel |  | 10 µM |  | remaining activity | 90% |
